Measured values collected from several papers.
Compare with care: the assays were run in different laboratories. ± gives the spread as reported. Converted amounts (≈) assume the structure as drawn.

`CCC(=O)N[C@@H](C)C(=O)OCC(=O)N[C@@H](C)C(=O)O` gave a depolymerization half-life of 806 h (water; pH 6, 25 °C).
`Nc1ccn(CC(=O)N[C@@H](Cc2ccccc2)C(=O)N[C@@H](Cc2ccccc2)C(=O)O)c(=O)n1` has a nanofiber width of 10 nm (TEM; hydrogel in water; 2.0 wt%, pH 5.0 or 7.4, together with: alkaline phosphatase at pH 7.4).
With `CC(=O)N[C@@H](CCCCN)C(=O)N[C@@H](CCCCN)C(=O)N[C@@H](CCCCN)C(=O)N[C@@H](CO)C(=O)NCC(=O)N[C@@H](CO)C(=O)NCC(=O)N[C@@H](CCC(N)=O)C(=O)N[C@@H](CCC(N)=O)C(=O)N[C@@H](CCCCN)C(=O)N[C@@H](Cc1ccccc1)C(=O)N[C@@H](CCC(N)=O)C(=O)N[C@@H](Cc1ccccc1)C(=O)N[C@@H](CCC(N)=O)C(=O)N[C@@H](Cc1ccccc1)C(=O)N[C@@H](CCC(=O)O)C(=O)N[C@@H](CCC(N)=O)C(=O)N[C@@H](CCC(N)=O)C(N)=O` the nanofiber width was 9.66 ± 0.99 nm (negative-stain TEM; 1× PBS; 0.2 mM).
`Cc1ccccc1/N=N/c1ccc(/N=N/c2c(O)ccc3ccccc23)c(C)c1` — result for “freeze-thaw stability deviation”: 0.4% (rat whole blood; 16.0 µg/L, freeze-thaw cycle 3).
Under chemical stability, `O=[N+]([O-])[O-].[NH3+][Pt-2]1([NH3+])[O]C(c2ccccc2)=CC(c2ccccc2)=[O+]1` (centres unmarked) is recorded as “no effect” (1H NMR; water; up to 25 d, 37 °C).
The recovery of `CC[C@H](C)[C@H](NC(=O)[C@H](N)Cc1ccc(O)cc1)C(=O)N[C@H]1CSSC[C@@H](C(=O)N(C)[C@H](C(N)=O)[C@@H](C)CC)NC(=O)[C@H](CCCNC(=N)N)NC(=O)[C@H](Cc2c[nH]cn2)NC(=O)[C@H](C)NC(=O)CN(C)C(=O)[C@H](Cc2c[nH]c3ccccc23)NC(=O)[C@H](CC(=O)O)NC(=O)[C@H](CCC(N)=O)NC(=O)[C@H](Cc2cn(C)c3ccccc23)NC(=O)[C@H](C(C)C)NC1=O` is reported as 100.3 ± 0.9% (UPLC-ESI-MS; human plasma; 0.36 µg/mL, 24 h, 25 °C, bench-top after SPE).
With `Cc1ccc(OCC(=O)N(Cc2cccs2)c2ccn[nH]2)cc1` the oral bioavailability was 1.26% (beagle dog, male, plasma; oral gavage, 10 mg/kg).
`C#CCOc1ccc(/C=C2\SC(=O)N(CC(=O)NCc3ccccc3)C2=O)cc1` — result for “Kirkwood-Buff integral G2,3”: -365 cm³/mol (inverse Kirkwood-Buff integrals; binary solvent mixture; 298.15 K, mole fraction x1 0.55).
`C[C@H](Oc1cc(-c2cnn(C3CCN(CC[18F])CC3)c2)cnc1N)c1c(Cl)ccc(F)c1Cl` gave a tracer uptake of 2 ± 0.6 %ID/cc (PET imaging; nude mouse, muscle; iv, 5 min post injection).
The AUC(0-inf) of `CC(C)C[C@@H](NC(=O)[C@H](NC(=O)[C@H]1CCCN1)[C@H](C)O)C(=O)N[C@H](Cc1c[nH]cn1)C(=O)N[C@@H](C(=O)N[C@H](Cc1c[nH]cn1)C(=O)N[C@H](CC(N)=O)C(=O)N[C@H](CCCNC(=N)N)C(=O)N[C@H](CCCNC(=N)N)C(=O)N[C@H](CCCNC(=N)N)C(=O)N[C@H](CCCNC(=N)N)C(=O)N[C@H](CCCNC(=N)N)C(N)=O)[C@H](C)O` is reported as 659 ± 605 ng·h/mL (Beagle dog, CSF; oral, 50 mg/kg).
With `CN1CCC[C@]1(C)/C=C/S(=O)(=O)NC(=O)Nc1c2c(cc3c1CCC3)CCC2` the Tmax was 1.5 h (human, plasma; oral, 25 mg, single dose).
The tissue concentration of `CC/C=C\C/C=C\C/C=C\C/C=C\C/C=C\CCCCOC(CC)C(=O)O` (centres unmarked) is reported as 145 µg/g (14C radiolabel; Wistar rats male, liver; oral, 100 mg/kg, 8 h).
For `N#Cc1nc(N2CCOCC2)nc(N(Cc2ccc(F)cc2)CC2CCCNC2)n1` (centres unmarked), “brain/plasma AUC ratio” read 0.15 (CD-1 mouse female; intraperitoneal, 10 mg/kg; baseline: brain over plasma).
The AUC(0-last) ratio of `CCCC(CCC)NC(=O)c1ccc(O)c(O)c1` is reported as 13.8 (male Sprague-Dawley rats, plasma; oral, 50 mg/kg of parent drug; baseline: 50 over 20 mg/kg dose).
Under “unchanged drug excreted”, `N=C(N)NCCC[C@@H]1NC(=O)[C@H](Cc2c[nH]c3ccccc23)NC(=O)[C@@H](CC2CCCCC2)NC(=O)[C@@H]2CCCN2C(=O)[C@@H](NC(=O)CCc2ccccc2)CCCNC1=O` is recorded as no more than 16% (C57BL/6J mouse, feces; intravenous, 1 mg/kg, 24 h).
With `CCC/C(=C\C1=C(OC)C(=O)c2ccccc2C1=O)C(=O)NOC` the thermodynamic solubility was 407 µg/mL (≈ 1240 µM) (aqueous buffer; pH 6.8).
For `COc1cc2ncnc(Oc3ccc4c(C(N)=O)c(C)oc4c3)c2cc1OC`, “decrease in exposure” read roughly 28% (measured: AUC0-t; human, moderate renal impairment; oral; baseline: normal renal function).
For `C[Si]1(C[C@H](CN)CC(=O)O)CCCC1`, the performance time was 180 s (neuromuscular coordination; Wistar rat male; oral, 300 mg/kg, 3 h).
`NC(=O)c1cccnc1.O.O=c1[nH]cc(F)c(=O)[nH]1.O=c1[nH]cc(F)c(=O)[nH]1.O=c1[nH]cc(F)c(=O)[nH]1` has a CL/F of 71.2 mL/min/kg (rat, plasma; oral, 0.06 mmol/kg).
`CCc1cc(Nc2nc(-c3ccc(-n4cnc(C)c4)c(F)c3)cs2)c(C)cc1C(=O)O`: “share of drug-related material” greater than 10% (dog, plasma; oral, dose not given).
`CC(C)[C@H](NC(=O)CNC(=O)[C@H](CCC(N)=O)NC(=O)[C@H](C)N)C(=O)O` gave a Cmax of 2300 ng/mL (LC-MS/MS; human, male, plasma; intravenous, 10 mg/kg three times daily, day 1, first dose, 10 min infusion, geometric mean).
For `NC[C@@H](C(=O)Nc1ccc(-c2cn[nH]c2)cc1)c1ccccc1`, the microsomal CLint was 7.82 µL/min/mg (metabolic stability; dog, liver microsomes).
`O=C(C1CC1)N1CC=C(c2cc3c(Nc4cc5ncsc5cc4F)ncnc3s2)CC1` gave an intrinsic clearance of less than 12 mL/min/g protein (human liver microsomes; 1 µM).
For `Cc1noc(C)c1Cn1cc(N2C(=O)CN(Cc3cccc(OS(=O)(=O)O)c3)C2=O)cn1`, the AUC(0-last) was 32000 ng·h/mL (rat Sprague-Dawley male, plasma; oral, 30 mg/kg of parent drug).
For `COc1cc2c(cc1OC)CN(CCCCn1ccc3cc(OCC[18F])ccc31)C2`, the tracer uptake was 3.94 %ID/g (male CD-1 mouse, kidney; intravenous, 2 h).
For `Cn1c(=O)oc2ccc(-c3ccc(CC(C#N)NC(=O)C4CNCCCO4)c(F)c3)cc21` (centres unmarked), “triglycerides increased incidence” read 11.1% (human; oral, 20 mg once daily, TEAE, multiple ascending dose).
`O=C(O)[C@@H]1C[C@@H](O)CN1C(=O)[C@@H]1CCCN1` gave a log beta of 0.01 (potentiometric titration; 25 °C, MAH-2 complex, together with: Fe(III)).
`C[Si](C)(C[C@@H](CN)CC(=O)O)C1CC1` gave a performance time of 180 s (neuromuscular coordination; Wistar rat male; oral, 100 mg/kg, 3 h).
For `C=C(c1ncc(C(=O)O)cn1)c1cc2c(cc1C)C(C)(C)CCC2(C)C`, the LDL level was 13 ± 1.5 mg/dL (Sprague-Dawley rat, male, plasma; oral, 100 mg/kg, 6 h, sesame oil vehicle).
The faecal excretion of `COCCOCCOCCOCCOCCOCCOCCOCCOCCOCCOCCOCCNC(=O)CCc1ccc(N(c2ccc(CCC(=O)NCCOCCOCCOCCOCCOCCOCCOCCOCCOCCOCCOCCOC)cc2)c2ccc(-c3c4c(c(-c5ccc(N(c6ccc(CCC(=O)NCCOCCOCCOCCOCCOCCOCCOCCOCCOCCOCCOCCOC)cc6)c6ccc(CCC(=O)NCCOCCOCCOCCOCCOCCOCCOCCOCCOCCOCCOCCOC)cc6)cc5)c5nsnc35)N=S=N4)cc2)cc1` is reported as roughly 11% (KM mice, female, faeces; intravenous, dose not given, 24 h; baseline: dose).
With `N=C(N)NCCC[C@H](NC(=O)[C@@H]1CCCN1C(=O)[C@H](Cc1ccccc1)NC(=O)[C@@H]1CCCN1C(=O)[C@H](Cc1c[nH]cn1)NC(=O)[C@@H](N)Cc1ccccc1)C(=O)O` the MRT(0-inf) was 0.344 ± 0.0315 h (Sprague-Dawley rat male, plasma; intravenous, 10 mg/kg).
With `CCC1CNC(CC)CN(C(C(=O)[O-])c2ccc(C(=O)[O-])cc2)C(CC)CN(CC(=O)[O-])C(CC)CN1.[Mn+2]` (centres unmarked) the Mn content was 13.9 µg/g (ICP-MS; BALB/c mice, intestine; intravenous, 0.05 mmol/kg, 30 min).
`COc1ccc2cc(-c3ccc(-c4ccc(C)cn4)nc3)oc2c1` — result for “radiative decay rate constant”: 0.75 ns⁻¹ (TCSPC; hexanes).
Under “brain/plasma unbound AUC ratio”, `C[C@H](Nc1nc(-c2cnccn2)nc(Cl)c1-c1c(F)cc(F)cc1F)C(F)(F)F` is recorded as 1.7 ± 0.6 (CD1 mouse; intraperitoneal, 5 mg/kg, 16 h).
`NC12CNCCNCC(NCc3ccc(CNC(=O)CCCC(=O)NCc4ccc(-c5nncnn5)cc4)cc3)(CNCCNC1)CNCCNC2.[64Cu+2]`: “mean absorbed dose” 0.0341 rad/mCi (OLINDA dosimetry; gallbladder wall; pretargeting, 120-h interval).
`COc1cc(OC)cc(C2=C3C(C)=C(I)C(C)=[N+]3[B-](F)(F)n3c(/C=C/c4cccs4)c(I)c(C)c32)c1` gave an absorption maximum of 604 nm (DMSO).
For `COc1cc(-c2nc3ccccc3s2)cc(CN2Cc3cccc(n3)CN(Cc3cc(-c4nc5ccccc5s4)cc(OC)c3O)Cc3cccc(n3)C2)c1O`, the pKa1 was 4.35 (UV-vis spectrophotometric titration, measured: H4L3+/H3L2+ equilibrium; MeOH/water with NaCl; 50 µM, room temperature, NaCl 0.1 M, MeOH ≤20% v/v).
Under “grade ≥3 treatment-related proteinuria”, `COCC1CN(C2CCN(c3cc(OC)c(Nc4ncc(Br)c(Nc5ccc6c(c5P(C)(C)=O)OCCO6)n4)cc3C)CC2)C1` is recorded as 3.7% (human patients; oral, dose not given).
`CC(C)(C)NCC(SS(=O)(=O)O)c1ccccc1` (centres unmarked) has an intrinsic clearance of 0.333 µL/min/mg (mouse liver microsomes; glucuronidation).
The LDL level of `C=C(c1ccc(C(=O)O)c(F)c1)c1cc2c(cc1C)C(C)(C)C=CC2(C)C` is reported as 5 ± 2.5 mg/dL (Sprague-Dawley rat, male, plasma; oral, 100 mg/kg, 9 h, sesame oil vehicle).
For `CC(C)c1cnc(-c2cc(Cl)ccc2F)cc1Nc1ccncc1C(=O)NC(CO)CO`, “patients with decreased appetite” read 7.1% (patients, phase I monotherapy; oral, dose not given, grade 1).
For `Cc1ccc(NCC(=O)N2CCOCC2)cc1S(=O)(=O)N1CCOCC1`, the kinetic solubility was 110 µM (≈ 42.2 µg/mL) (water).
`CCCC[C@H](NC(=O)CNC(=O)CNC(=O)CN1CCN(CC(=O)O)CCN(CC(=O)O)CC1)C(=O)N[C@H]1CC(=O)NCCCC[C@@H](C(N)=O)NC(=O)[C@H](Cc2c[nH]c3ccccc23)NC(=O)[C@H](CCCNC(=N)N)NC(=O)[C@@H](Cc2ccccc2)NC(=O)[C@H](Cc2c[nH]cn2)NC1=O` [copper-64 labelled] gave an uptake ratio of 12.5 (female C57 mouse, B16/F1 melanoma; intravenous, 0.037 MBq, 4 h; baseline: tumour over stomach).
For `CCOC(=O)C(Cc1cccc(O)c1)OC(=O)C=Cc1ccc(O)c(O)c1C=Cc1ccc(O)c(O)c1` (centres unmarked), “liver and kidney function markers” read “no effect” (normal mice; dose not given).
For `C/C=C/CNC(=N)NCCCCCCCCN1CCCCCCOc2ccccc2CNC(=N)NC1=O`, the membrane retention was 50.8% (PAMPA; egg phosphatidylcholine in dodecane; 500 µM, 5 h, pH 7.4, room temperature).
For `COc1cc(NC(C)=O)c2c(c1O)-c1c(OC)c(OC)cc3c1C(C2)N(C)CC3` (centres unmarked), the remaining compound was 87.5 ± 2.4% (rat heart homogenate; 0.5 µg/mL, 40 d, -20 °C, long-term storage).
For `Cc1[nH]nc2c1N=C(c1ccccc1Cl)c1cnc(NCCOCCO)cc1N2`, “excretion in feces” read 3.14% (human, feces; oral, 10 mg, 0 to 192 h; baseline: dose).
